Measured values collected from several papers.
Protocols differ between the studies behind these lines.

Compound	tested on	assay	test system	conditions	how to read	measurement	value
CNS(=O)(=O)Nc1nccc(Cc2c(C)c3ccc(Oc4ncccc4F)cc3oc2=O)c1F	BC-3	cell viability		7 days		IC50	> 1000 nM
C=CC(=O)Nc1cccc(Cn2ncc3cnc(Nc4cnn(CCOC)c4)nc32)c1	human S6K1	KINOMEscan		100 nM	baseline: control	binding	90%
Cn1ncc2cc(-c3cncc(Cl)c3N3CCC4(CCNC4=O)CC3)ccc21	LS174T	gene expression, microarray, refers to: CCDC80 mRNA		concentration not given, 4 h	baseline: untreated cells	log2 fold change	2.51
COc1ccccc1-c1ccncc1C(=O)Nc1nnc(OCc2ccc(Cl)cc2)s1	MDA-MB-436 BRCA1-mutant			3 µM, mean of 3 replicates	baseline: untreated	colony survival	48.6%
CCN(C(=O)c1cc(F)ccc1Oc1nncnc1N1CCC2(C1)CN([C@H](CCCN(C)CCOC)C(C)C)C2)C(C)C	T24	cell growth or viability		72 h		GI50	> 10000 nM
CCN(CC)CC(=O)Nc1cccc(-n2cc(-c3ccc4ccc(-c5cn(-c6cccc(NC(=O)CN(CC)CC)c6)nn5)cc4c3)nn2)c1	RCC4	PCR angiogenesis array, refers to: ANG		5 x IC50, 4 h, normoxia	baseline: untreated	fold regulation	-1.35
CN1CCCNC(=O)c2cccc(c2)C(=O)NCCCN(C)CCCNc2cccc3c2C(=O)c2cccc(c2C3=O)NCCC1	SAS	RNA-Seq, refers to: GLS mRNA		1 µM, 6 h	baseline: untreated cells	log2 fold change	-1.3
Cc1ncsc1-c1ccc(C(C)NC(=O)C2CC(O)CN2C(=O)C(NC(=O)CCCCCCCCCCN2CCCC(Nc3ncc(Cl)c(Nc4ccccc4S(=O)(=O)C(C)C)n3)C2)C(C)(C)C)cc1 (stereo not shown)	22Rv1	RNA-seq, refers to: SLC17A5 mRNA		concentration not given	baseline: DMSO	log2 fold change	-1.2
CC(C)c1ccc(N(C)c2ccc3c(c2)OCC[C@H]3CNc2cnccc2C(=O)O)cc1	SW780	cell growth or viability, ATP luminescence		7 days		IC50	13 nM
COC1CN([C@H]2CC[C@H]([C@@]3(C)Oc4c(Cl)cc(C(=O)NCc5c(SC)cc(C)[nH]c5=O)c(C)c4O3)CC2)C1		RNA-seq, refers to: P2RY14	human, whole blood	dose not given, 24 h	baseline: pretreatment baseline	log2 fold change	1.64

Some of these lines once more:
Compound	tested on	assay	test system	conditions	how to read	measurement	value
Cc1ncsc1-c1ccc(C(C)NC(=O)C2CC(O)CN2C(=O)C(NC(=O)CCCCCCCCCCN2CCCC(Nc3ncc(Cl)c(Nc4ccccc4S(=O)(=O)C(C)C)n3)C2)C(C)(C)C)cc1 (stereo not shown)	22Rv1	RNA-seq, refers to: SLC17A5 mRNA		concentration not given	baseline: DMSO	log2 fold change	-1.2
